Results collected from several papers.

Structure (SMILES)	assay	system	setting	pKa
O=C(NC[C@H](Cc1ccc(F)cc1)N1CCC(O)(C(F)(F)F)CC1)C1(c2ccc(Cl)cc2)CCCC1	UV-metric			5.91
Cc1ccc2cc(C#N)cc(O)c2n1	capillary electrophoresis			8.6
NS(=O)(=O)c1c(F)c(F)c(S(=O)(=O)CCc2ccccc2)c(NC2CCCCCCCCCCC2)c1F			sulfonamide group	7.87
O=C(O)C1CC2(C1)CC(F)(F)C2	potentiometric titration	methanol-water	25 °C, carboxylic acid	4.3
CNc1c(F)c(S(N)(=O)=O)c(F)c(F)c1S(=O)(=O)CCc1ccccc1			sulfonamide group	7.87
Cc1ccc2cc(F)cc(O)c2n1	capillary electrophoresis			8.9
NCC1CC2(C1)CC(F)(F)C2	potentiometric titration	methanol-water	25 °C, amine hydrochloride	10.3
NS(=O)(=O)c1cc(C(=O)NCCCC(=O)O)c(NC2CCCCC2)cc1Cl			sulfonamide group	9.5
Cc1ccc2cc([N+](=O)[O-])cc(O)c2n1	capillary electrophoresis			8.3
NCC1CC2(CCC2)C1	potentiometric titration	methanol-water	25 °C, amine hydrochloride	10.6
Cc1cc(NC(=O)c2ccc(Br)cc2)n[nH]1				2.19
NCC1CC2(CCC2)CO1 (stereo not drawn)	potentiometric titration	methanol-water	25 °C, amine hydrochloride	9.5
CC(C)(C)N1Cc2cccc(n2)CN(C(C)(C)C)Cc2cc(-c3nc4ccccc4s3)cc(n2)C1		0.1 M NaCl	25 °C, H2L2+ deprotonation	7.44
Cc1cc(S(N)(=O)=O)c(Cl)cc1NC1CCCCC1			sulfonamide group	9.82
Cc1ccc2ccc([N+](=O)[O-])c(O)c2n1	capillary electrophoresis			6.65
CC(C)(C)Nc1c(F)c(S(N)(=O)=O)c(F)c(F)c1S(=O)(=O)CCc1ccccc1			sulfonamide group	7.87
O=C(O)C1CC2(CCC2)CO1 (stereo not drawn)	potentiometric titration	methanol-water	25 °C, carboxylic acid	3.7
c1cc2nc(c1)CSCc1cccc(n1)CSC2		0.1 M NaCl	25 °C, H2L2+ deprotonation	4.33
Cc1ccc2c(Cl)ccc(O)c2n1	capillary electrophoresis			9.2
c1cc2nc(c1)CSCc1cc(-c3nc4ccccc4s3)cc(n1)CSC2		0.1 M NaCl	25 °C, HL+ deprotonation	6.49
O=C(O)CNC(=O)c1nc(Cl)c2ccccc2c1O			second acidic	6.5
Cc1ccc2c(F)ccc(O)c2n1	capillary electrophoresis			9.4
NS(=O)(=O)c1c(F)c(F)c(S(=O)(=O)CCc2ccccc2)c(N2CCOCC2)c1F			sulfonamide group	7.87
Cc1ccc2ccc(F)c(O)c2n1	capillary electrophoresis			9
NCC1CC2(CO1)CC(F)(F)C2 (stereo not drawn)	potentiometric titration	methanol-water	25 °C, amine hydrochloride	9.2
O=C(NC[C@H](Cc1ccccc1)N1CCC(O)(C(F)(F)F)CC1)C1(c2ccc(Cl)cc2)CCCC1	UV-metric			6.16
COCCNC(=O)c1cc(S(N)(=O)=O)c(Cl)cc1NC1CCCCC1			sulfonamide group	9.5
Cc1ccc2c(C)ccc(O)c2n1	capillary electrophoresis			10.5
NS(=O)(=O)c1c(F)c(F)c(S(=O)(=O)CCc2ccccc2)c(N[C@H]2CCc3ccccc32)c1F			sulfonamide group	7.87
FC(F)(F)C1(c2ccc(CN3CCN(C(c4ccccc4)c4ccc(Cl)cc4)CC3)cc2)CCC1 (stereo not drawn)	acid-base titration			3.52
